Measured values gathered from unrelated publications.
A part holds a random share of what one study measured. Positions count from the first letter of the parent shown.

Series 1
Target: Ras GTPase-activating protein-binding protein 1, C-terminal RGG region (G3BP1, Homo sapiens, UniProt Q13283)
Chain of UniProt Q13283 (whole entry, looked up): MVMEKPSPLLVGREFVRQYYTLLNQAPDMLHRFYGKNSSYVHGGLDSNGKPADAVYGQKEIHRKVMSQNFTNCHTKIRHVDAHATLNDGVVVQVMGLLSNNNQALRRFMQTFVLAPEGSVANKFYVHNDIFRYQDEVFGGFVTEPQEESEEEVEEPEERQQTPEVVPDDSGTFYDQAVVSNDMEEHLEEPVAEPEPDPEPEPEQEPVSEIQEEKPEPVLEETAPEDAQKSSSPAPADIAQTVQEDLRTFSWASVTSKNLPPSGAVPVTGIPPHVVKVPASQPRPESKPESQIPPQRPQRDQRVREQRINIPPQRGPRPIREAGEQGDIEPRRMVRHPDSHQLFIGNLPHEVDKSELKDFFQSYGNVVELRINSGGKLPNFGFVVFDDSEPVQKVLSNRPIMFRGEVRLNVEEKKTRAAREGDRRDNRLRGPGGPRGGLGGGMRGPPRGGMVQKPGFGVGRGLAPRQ
Technique: RNA Bind-n-Seq
Molecule type: RNA
Sample: in vitro
Concentration: 1 µM
Notes: whole 134-nt RNA, ends assumed
Together with: 150 mM KCl
Reference: input library
Reading: higher = stronger binding
Sequence	log2 enrichment
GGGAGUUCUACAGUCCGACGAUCGUCCUGUGCUACACAUCGUAUGUACCGAAUCGGGGUUUUGGGGUUUUGGGGUUUUGGGGAAAGUAUUAUGUUACGCCGUUCGGAUCUGCAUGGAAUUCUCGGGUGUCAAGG	2.13
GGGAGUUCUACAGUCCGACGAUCCACAGACAACACGCACCCACACAGACACAGAAAAAAGGGGUUGGGAUGGGGACAGGGUGCACAGCAGGGCGGGGUAGGACCCCAGCCCCUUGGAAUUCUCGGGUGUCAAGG	-0.253
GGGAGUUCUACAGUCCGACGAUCUCCUCAAGUCCUGUGCUACACAUCGUAUGUACCGAAUCGGGGCGGCGGCGGAAAGUAUUAUGUUACGCCGUUCGGAUCUGCACUUCCAGCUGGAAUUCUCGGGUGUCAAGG	-1.02
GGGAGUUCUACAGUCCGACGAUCCCUGUGCUACACAUCGUAUGUACCGAAUCGGGAAAAAAAGGGAAAAAAAGGGUUUUUGGGAAAGUAUUAUGUUACGCCGUUCGGAUCUGCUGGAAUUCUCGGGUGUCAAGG	-1.72
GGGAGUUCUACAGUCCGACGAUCUGGGAGGUGGAUUUUGUUUAUUUUUUUAGCUCAUUUCCAGGGGUGGGAAUUUUUAUUUAAUAUGUGUCAUGAAUAAAGUUGUUUUUGAAAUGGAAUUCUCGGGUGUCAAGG	2.97
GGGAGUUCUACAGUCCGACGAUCGUCCUGUGCUACACAUCGUAUGUACCGAAUCGGGGAAAAAGGGGUUUGGGGAAAGGGGAAAGUAUUAUGUUACGCCGUUCGGAUCUGCACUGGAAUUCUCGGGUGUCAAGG	3.14
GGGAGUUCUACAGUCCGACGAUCAGUCCUGUGCUACACAUCGUAUGUACCGAAUCGGGAAAAGGGGAAAAGGGGAAAAGGAAAGUAUUAUGUUACGCCGUUCGGAUCUGCACUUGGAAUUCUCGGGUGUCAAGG	-0.938
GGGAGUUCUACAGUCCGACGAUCCACAGACAACACGCACCCACACAGACACAGAGGGAAGGGGUUGGGAUGGGGACAGGGUGCAUAGCAGGGCGGGGUAGGACCCCAGCCCCUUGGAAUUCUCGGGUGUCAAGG	0.0217
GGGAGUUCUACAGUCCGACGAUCACCAUGCAGGUGGGCAUCUUUGGGAAGUGGGGCAAGGGGGGGAUAGGGAGGGGGGUAACACUUUGGGAACAGGUGGUCCCAGGUCGUAAAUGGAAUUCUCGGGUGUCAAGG	-1.04

Series 2
Target: Histone acetyltransferase KAT6A, both winged helices, GST fusion (KAT6A, Homo sapiens, UniProt Q92794, residues 1-181)
Technique: protein binding microarray
Molecule type: double-stranded DNA, one strand shown
Sample: in vitro
Concentration: not given
Notes: 8-mer, flanks averaged, mean of 2 arrays, mostly near background
Reference: not given
Reading: higher = stronger binding
Construct (chain): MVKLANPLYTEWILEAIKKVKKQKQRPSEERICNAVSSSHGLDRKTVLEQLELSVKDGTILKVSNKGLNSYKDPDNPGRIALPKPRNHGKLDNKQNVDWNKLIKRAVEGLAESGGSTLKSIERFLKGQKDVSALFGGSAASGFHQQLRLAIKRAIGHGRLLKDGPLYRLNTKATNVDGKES
Sequence	E-score
CGCGCCAA	0.33
GATGCACC	0.0102
CACGGGTA	0.182
GTCCCATA	-0.0965
ACGAACAG	0.0726
GTCTCAAA	0.00348
CCGTTTCC	0.215
CCGTTGCC	0.26
AATGAACG	0.0521
AGGTGCAA	-0.255
CTCTGGCC	-0.154
ACTGCCGA	0.105
AAAGCCCT	-0.258
AGCCTGAT	-0.128
TCTACTAA	-0.0211
GCGGACAC	0.228
ATTCGGGC	0.0478
CCGCATCG	0.192
AGGAAACC	0.0663
GCGTGGCC	0.15
CGTGGCGA	0.11
CGCGACTA	0.194
GAAAGTGC	-0.0199
GGTTATTA	0.0463
GCAATGGC	-0.035

Series 3
Target: CREB3L4, bZIP domain (human)
Technique: DHFR protein complementation
Sample: yeast
Notes: single substitutions, most at no-binding floor
Reference: wild-type JUN-FOS pair
Reading: higher = stronger binding
Starting sequence: JUN, bZIP domain (human); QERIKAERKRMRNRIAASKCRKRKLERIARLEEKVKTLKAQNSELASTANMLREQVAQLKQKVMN; partner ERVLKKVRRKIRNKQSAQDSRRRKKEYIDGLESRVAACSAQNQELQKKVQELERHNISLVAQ
Change	binding fitness
E32T	-1.44 natural log
I28A	-1.48 natural log
V35E	-1.41 natural log
K34S	-1.38 natural log
T37C	-1.15 natural log
N42K	-1.4 natural log
L45F	-1.53 natural log
L45K	-1.46 natural log
K39R	-1.27 natural log
E33H	-1.45 natural log
L52E	-1.59 natural log
L31E	-1.42 natural log
N42A	-1.5 natural log
A49K	-1.04 natural log
S47W	-1.33 natural log
L52D	-1.58 natural log
A57P	-1.53 natural log
S43Q	-1.4 natural log
N42M	-1.51 natural log
L45G	-1.52 natural log
A57V	-1.57 natural log
A49R	-1.52 natural log
E44I	-1.55 natural log

Series 4
Target: Interferon regulatory factor 7, full length, phosphomimetic (IRF7, Homo sapiens, UniProt Q92985, residues 1-503, S101K/S471D/S472D/S475D/S476D/S477D/S483D/S484D/S487D)
Chain of UniProt Q92985 (whole entry, unmodified, looked up): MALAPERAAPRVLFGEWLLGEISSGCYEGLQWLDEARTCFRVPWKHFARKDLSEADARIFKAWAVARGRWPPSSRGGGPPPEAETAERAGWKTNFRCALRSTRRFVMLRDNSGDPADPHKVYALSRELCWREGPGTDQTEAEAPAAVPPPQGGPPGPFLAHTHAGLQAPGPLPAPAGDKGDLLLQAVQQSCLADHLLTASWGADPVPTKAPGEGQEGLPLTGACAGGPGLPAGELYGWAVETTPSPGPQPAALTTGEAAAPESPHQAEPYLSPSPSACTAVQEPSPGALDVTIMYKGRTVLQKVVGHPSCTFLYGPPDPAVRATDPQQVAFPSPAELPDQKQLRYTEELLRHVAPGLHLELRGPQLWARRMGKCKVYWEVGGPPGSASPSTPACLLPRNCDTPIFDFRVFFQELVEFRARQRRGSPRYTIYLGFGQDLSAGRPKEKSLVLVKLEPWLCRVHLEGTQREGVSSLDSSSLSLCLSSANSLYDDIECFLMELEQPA
Technique: protein-binding microarray
Molecule type: double-stranded DNA, one strand shown
Sample: in vitro
Concentration: 250 nM
Notes: 60-bp whole probe
Together with: salmon DNA 0.4 mg/ml
Reference: random background probes
Reading: higher = stronger binding
Constant ends, left off below: GCCTAGCAC … GTCTTGATTCGCTTGACGCTGCTG
Sequence	log fluorescence
TTAGGACTGCTTTTCCTTTAGTGCTAG	1.31 z-score
AAACTCGTGTTTTTCTCCTAGTGCTAG	0.491 z-score
TTGGGTATCGACTTTCGGTTAGTGCTA	2.43 z-score
TTAGGTTTCCTTTTCGTTTAGTGCTAG	7.15 z-score
ATAAATATGAGACTGGGGATGTGCTAG	0.0571 z-score
ACTGTGTTTTGGATGTCAGAGTGCTAG	0.0433 z-score
TCACTTTTGCTAATTTTACTGTGCTAG	0.75 z-score
CTCTGGGGCTCCAGGGAGAAGTGCTAG	-1.15 z-score
GACGGTATCGCACTGGGGACGTGCTAG	0.0319 z-score
TTCCCTCTCCCCTCTTGTGCTGTGCTA	1.06 z-score
TAAGATATCAGACTGGATTAGTGCTAG	0.123 z-score
TTAGGACTGGACTATTGGTTAGTGCTA	-0.336 z-score
TCACACTCCAGTCTGGGACTGTGCTAG	-0.161 z-score
GAGGGTTTCCTACTGCTGACGTGCTAG	0.697 z-score
GAAGGTATCGACTTTCGGGACGTGCTA	1.28 z-score
TTAGGTTTCGGGTTTCGGTGAGTGCTA	11 z-score
GACGGTTTCGGACTGGGAACGTGCTAG	4.52 z-score
TTAGGTTTCGACACTGGGTTAGTGCTA	3.4 z-score
TCAAAACTCGTGTTTTTCACTGTGCTA	0.566 z-score

A few entries again (series 2):
Sequence	E-score
CGTGGCGA	0.11
AGGAAACC	0.0663
CCGTTGCC	0.26
GCGTGGCC	0.15
GGTTATTA	0.0463
ACGAACAG	0.0726
GAAAGTGC	-0.0199
AATGAACG	0.0521
GTCCCATA	-0.0965
GTCTCAAA	0.00348
ATTCGGGC	0.0478
CGCGACTA	0.194
CACGGGTA	0.182
